Assay results collected from several papers.
Each numbered part is a random draw from the data of one study; scales do not carry over between parts. Changes are numbered by the printed parent chain.

Sample 1 — target: CCND3, cyclin fold, Cln2 fusion (human); method: yeast growth competition, sequencing; medium: yeast; setting: weak parent motif; baseline: not given; direction: higher = stronger binding; measurement: normalised enrichment score
Parent: PKN2 docking peptide (human); VSAVRKLDFSDTM
VSAVRKCDFSDTM [L7C]: -0.166
VSAVRKLDFSETM [D11E]: 0.935
VSAVRKLDFSYTM [D11Y]: 0.24
VSKVRKLDFSDTM [A3K]: 0.426
VSADRKLDFSDTM [V4D]: -0.232
VSAVTKLDFSDTM [R5T]: 0.17
VSAWRKLDFSDTM [V4W]: -0.0407
VSAVRKLDFSTTM [D11T]: 0.352
VSAVRKLDFSKTM [D11K]: 0.522
VSAVRKLDFSDRM [T12R]: 0.832
VSAVRKLMFSDTM [D8M]: 0.029
VSAVRKLDTSDTM [F9T]: -0.0318
VSAVRKLDFSDYM [T12Y]: 1.07
VSAVRKLDWSDTM [F9W]: 0.464
VSAVRKLDDSDTM [F9D]: -0.0263

Sample 2 — method: DHFR PCA, deep sequencing; medium: yeast; added: (+)-ABA 0.11 µM; baseline: wild-type fitted maximum; direction: higher = stronger binding; measurement: relative binding score
Target: ABI1, truncated, D143A, DHFR fusion (Arabidopsis thaliana)
Setting: methotrexate growth selection, single substitutions
Parent: PYL1, truncated, DHFR fusion (Arabidopsis thaliana); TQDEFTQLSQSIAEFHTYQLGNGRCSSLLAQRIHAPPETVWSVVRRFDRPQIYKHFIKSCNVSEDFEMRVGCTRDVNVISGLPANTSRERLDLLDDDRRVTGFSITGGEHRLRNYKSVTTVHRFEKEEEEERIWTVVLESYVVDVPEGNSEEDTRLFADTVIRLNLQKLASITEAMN
T73F: 52.5%
S140D: -6.9%
S150G: 5.54%
T106G: -1.67%
V40P: -6.45%
V70S: 7.89%
D159F: -15.5%
R24P: -8.44%
L28Q: 2.96%
Y18H: 46.2%
P50S: -2.08%
Q2Y: 64.9%
R24Y: 5.78%
T73I: 44.7%
E128Y: 20.2%
S27C: 7.82%
R46H: 11.9%
R32C: 18.2%
V143P: 20.1%
Y53W: 55.1%
E174L: 2.33%
T106C: 14.1%
E127N: 49.2%
N61A: 39.2%

Sample 3 — method: universal PBM; molecule type: double-stranded DNA, one strand shown; medium: in vitro; concentration: not given; direction: higher = stronger binding; measurement: E-score
Target: Sal-like protein 4, full length isoform B (SALL4, Homo sapiens, UniProt Q9UJQ4-2, residues 1-616)
Setting: 8-mer, flanks averaged, mean of replicates
Target sequence (chain): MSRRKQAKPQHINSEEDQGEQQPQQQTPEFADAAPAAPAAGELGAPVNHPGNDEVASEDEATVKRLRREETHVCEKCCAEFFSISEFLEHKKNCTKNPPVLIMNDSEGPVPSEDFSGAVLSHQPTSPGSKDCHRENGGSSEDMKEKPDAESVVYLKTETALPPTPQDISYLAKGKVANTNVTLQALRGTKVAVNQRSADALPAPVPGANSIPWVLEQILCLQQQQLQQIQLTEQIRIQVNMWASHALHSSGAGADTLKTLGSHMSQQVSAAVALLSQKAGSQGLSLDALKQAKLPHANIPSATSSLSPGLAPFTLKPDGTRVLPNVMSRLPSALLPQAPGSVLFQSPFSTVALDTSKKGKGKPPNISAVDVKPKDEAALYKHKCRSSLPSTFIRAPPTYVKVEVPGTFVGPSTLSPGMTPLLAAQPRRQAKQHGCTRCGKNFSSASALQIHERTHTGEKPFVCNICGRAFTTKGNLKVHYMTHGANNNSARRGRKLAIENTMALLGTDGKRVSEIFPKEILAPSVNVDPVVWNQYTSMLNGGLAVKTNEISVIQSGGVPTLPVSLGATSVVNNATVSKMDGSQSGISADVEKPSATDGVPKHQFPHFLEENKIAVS
GCTTGGCC: -0.199
CACTTTGG: -0.00833
CAATGGCC: -0.19
AATTCCTC: -0.0206
AAAAGAGC: -0.0955
TCAGACGA: -0.0488
CTAATGTA: 0.211
AACTGTCA: 0.104
GACTAGTC: -0.184
TCGCTTAA: 0.0544
TGGAAACA: -0.00557
GTATACTA: 0.14
ATTGCCAA: 0.0389
CCTAGTAG: -0.147
GCAGTTGA: -0.106
ATCCGTCC: -0.156
ACGGAATC: -0.013
CTGAGCAG: -0.0661
CAGCTTGG: -0.158
AGTAGGAA: 0.0738
AGGCGAAT: 0.0289
GACGTCCA: -0.0525
AGTCGTAT: 0.14
AATTCAGA: 0.134
CGCCGAAA: -0.107

Sample 4 — method: protein-binding microarray; molecule type: double-stranded DNA, one strand shown; medium: in vitro; concentration: 250 nM; setting: 60-bp whole probe; added: salmon DNA 0.4 mg/ml; baseline: random background probes; direction: higher = stronger binding; measurement: log fluorescence; constant ends, left off below: GCCTAGCAC … GTCTTGATTCGCTTGACGCTGCTG
Target: Interferon regulatory factor 7, full length, phosphomimetic (IRF7, Homo sapiens, UniProt Q92985, residues 1-503, S101K/S471D/S472D/S475D/S476D/S477D/S483D/S484D/S487D)
Construct (chain): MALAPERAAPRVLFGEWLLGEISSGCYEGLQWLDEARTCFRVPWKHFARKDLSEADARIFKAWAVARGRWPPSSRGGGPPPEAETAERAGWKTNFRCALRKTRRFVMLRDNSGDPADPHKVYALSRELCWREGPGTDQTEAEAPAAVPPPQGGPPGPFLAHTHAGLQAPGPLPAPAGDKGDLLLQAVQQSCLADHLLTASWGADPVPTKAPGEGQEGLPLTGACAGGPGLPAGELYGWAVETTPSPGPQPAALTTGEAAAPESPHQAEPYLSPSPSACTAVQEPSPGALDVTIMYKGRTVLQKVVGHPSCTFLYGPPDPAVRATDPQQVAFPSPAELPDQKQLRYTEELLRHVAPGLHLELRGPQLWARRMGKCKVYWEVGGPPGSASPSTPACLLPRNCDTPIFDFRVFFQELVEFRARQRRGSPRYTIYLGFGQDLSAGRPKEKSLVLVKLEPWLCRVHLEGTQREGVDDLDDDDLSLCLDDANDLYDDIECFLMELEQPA
ATGAAAATCTCAATGGGTTAGTGCTAG: -0.158 z-score
CTGTGGGAGGCCCGCGGGAGGTGCTAG: -1.33 z-score
GACGGTATCTTTCTCCTGACGTGCTAG: 0.108 z-score
TCACCTTGATGTCTGGGACTGTGCTAG: -0.544 z-score
GACGATTTCAGTTTCGAGACGTGCTAG: 4.87 z-score
GATGGTATCGACTATCGGGACGTGCTA: -0.204 z-score
TCAAGACTTTCTTTCAAACTGTGCTAG: 0.477 z-score
GACGGGATCGGGACTGGGGACGTGCTA: -0.502 z-score
TCATTTTTTTAATTGAAACTGTGCTAG: 0.993 z-score
GACGGTCTCCTTCGCCTGACGTGCTAG: -0.25 z-score
TTAGATATCGGGTATCGTTTAGTGCTA: 1.09 z-score
TTAGATTTCGGGTTTCCATTAGTGCTA: 3.63 z-score
TTAAAAAAAAAAAACTGTAACGTGCTA: 0.19 z-score
TCACGGATGATCTCTCTGACTGTGCTA: -0.916 z-score
CACGGTATCGGACTGGGGACGTGCTAG: 0.214 z-score
GACGGTATCGGGTTTCGGGAAGTGCTA: 2.75 z-score
TCATGACACCGATTTCATACTGTGCTA: 0.258 z-score
GACGGTTTCCTCTTCCTGACGTGCTAG: 2.69 z-score

Sample 5 — method: protein binding microarray; molecule type: double-stranded DNA, one strand shown; medium: in vitro; concentration: not given; baseline: not given; direction: higher = stronger binding; measurement: E-score
Target: Histone acetyltransferase KAT6A, winged helix 2, GST fusion (KAT6A, Homo sapiens, UniProt Q92794, residues 85-181)
Setting: 8-mer, flanks averaged, mean of 2 arrays, mostly near background
Target sequence (chain): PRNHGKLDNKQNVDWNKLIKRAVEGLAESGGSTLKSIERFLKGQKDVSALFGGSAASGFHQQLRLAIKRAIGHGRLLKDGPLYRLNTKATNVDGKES
GTGGGAAA: 0.0269
CCGTTGTA: 0.0164
TGAGAGCA: 0.14
AACTCATC: -0.0243
AGCCATGG: -0.0736
AGATGTGG: -0.138
GCCTGGTA: -0.0899
GGACGACA: 0.0577
GGATTAGA: -0.107
CAACGTGA: -0.3
ACTCGTAC: -0.187
CACGAAAC: -0.0515
ACCGGGGA: 0.0242
GCTACCTA: -0.012
GAACACAA: -0.0611
GTGTGCCA: 0.0747
CATCGGTC: -0.0328
CCAGTGCC: 0.0751
AGATAGTA: 0.00284
TCAATTCA: 0.00844
ATCGATCC: -0.24
CACAAGTG: -0.108
ACTAATAG: 0.0219
TAGCGCAA: 0.0284
CATGTGTA: -0.146
